Experimental data from different studies.
Compare with care: the assays were run in different laboratories. ± marks the error that the study gave.
PTPN1: Tyrosine-protein phosphatase non-receptor type 1 (PTPN1, Homo sapiens, UniProt P18031)

Protein sequences, listed by entry. Tags and fused reporters are not part of them. Lines headed by an entry give the natural chain unless they say otherwise; changes in a name come on top. Residues count along the entry.
UniProt P18031, 1-321 limits assumed: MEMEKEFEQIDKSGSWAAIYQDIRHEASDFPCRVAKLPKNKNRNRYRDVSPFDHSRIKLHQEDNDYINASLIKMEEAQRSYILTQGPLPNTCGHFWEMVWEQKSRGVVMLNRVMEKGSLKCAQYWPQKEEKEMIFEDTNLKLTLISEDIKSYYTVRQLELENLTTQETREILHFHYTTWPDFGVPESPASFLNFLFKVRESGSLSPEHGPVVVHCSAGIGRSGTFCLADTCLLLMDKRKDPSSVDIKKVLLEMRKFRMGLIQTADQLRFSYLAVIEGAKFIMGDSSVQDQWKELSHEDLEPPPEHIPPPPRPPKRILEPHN
UniProt P61981, whole entry: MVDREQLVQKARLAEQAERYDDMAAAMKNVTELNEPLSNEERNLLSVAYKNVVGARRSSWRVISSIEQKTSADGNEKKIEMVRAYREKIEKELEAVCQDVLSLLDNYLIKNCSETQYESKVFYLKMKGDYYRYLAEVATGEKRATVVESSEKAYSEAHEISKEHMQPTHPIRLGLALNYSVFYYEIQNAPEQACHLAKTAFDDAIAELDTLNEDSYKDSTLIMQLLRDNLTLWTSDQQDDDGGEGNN
UniProt P04415, whole entry: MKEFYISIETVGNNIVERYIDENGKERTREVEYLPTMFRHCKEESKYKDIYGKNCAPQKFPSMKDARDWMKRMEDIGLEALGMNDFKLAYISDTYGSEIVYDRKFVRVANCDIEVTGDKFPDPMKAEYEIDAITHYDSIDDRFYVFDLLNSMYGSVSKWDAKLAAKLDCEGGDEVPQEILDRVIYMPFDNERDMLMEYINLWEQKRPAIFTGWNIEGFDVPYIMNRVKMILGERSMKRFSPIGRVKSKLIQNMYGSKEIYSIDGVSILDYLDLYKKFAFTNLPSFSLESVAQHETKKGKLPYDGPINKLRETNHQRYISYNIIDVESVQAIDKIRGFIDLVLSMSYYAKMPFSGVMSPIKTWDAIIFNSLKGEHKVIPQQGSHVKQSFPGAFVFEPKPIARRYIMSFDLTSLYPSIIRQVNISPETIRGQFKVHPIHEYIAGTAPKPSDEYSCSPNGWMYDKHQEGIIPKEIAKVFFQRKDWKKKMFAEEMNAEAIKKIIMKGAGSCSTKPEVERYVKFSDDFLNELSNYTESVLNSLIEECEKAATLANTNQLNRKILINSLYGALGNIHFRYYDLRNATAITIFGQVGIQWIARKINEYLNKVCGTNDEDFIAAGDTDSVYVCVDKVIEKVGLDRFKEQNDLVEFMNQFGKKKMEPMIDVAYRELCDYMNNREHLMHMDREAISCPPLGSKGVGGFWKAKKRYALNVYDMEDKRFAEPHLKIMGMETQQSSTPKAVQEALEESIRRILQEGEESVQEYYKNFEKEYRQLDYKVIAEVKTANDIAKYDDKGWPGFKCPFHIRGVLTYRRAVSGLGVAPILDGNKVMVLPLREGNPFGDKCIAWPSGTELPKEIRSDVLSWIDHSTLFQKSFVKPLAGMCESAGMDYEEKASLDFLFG
UniProt P25090, whole entry: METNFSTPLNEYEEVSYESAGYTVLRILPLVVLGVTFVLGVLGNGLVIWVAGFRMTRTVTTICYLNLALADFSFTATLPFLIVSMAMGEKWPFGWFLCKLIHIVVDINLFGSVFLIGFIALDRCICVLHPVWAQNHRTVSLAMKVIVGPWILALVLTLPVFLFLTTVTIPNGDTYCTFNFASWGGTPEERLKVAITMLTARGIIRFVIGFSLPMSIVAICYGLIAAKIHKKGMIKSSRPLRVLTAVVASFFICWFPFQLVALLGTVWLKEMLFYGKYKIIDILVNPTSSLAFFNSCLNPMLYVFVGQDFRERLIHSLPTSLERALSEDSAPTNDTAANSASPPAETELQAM
UniProt Q16539, whole entry: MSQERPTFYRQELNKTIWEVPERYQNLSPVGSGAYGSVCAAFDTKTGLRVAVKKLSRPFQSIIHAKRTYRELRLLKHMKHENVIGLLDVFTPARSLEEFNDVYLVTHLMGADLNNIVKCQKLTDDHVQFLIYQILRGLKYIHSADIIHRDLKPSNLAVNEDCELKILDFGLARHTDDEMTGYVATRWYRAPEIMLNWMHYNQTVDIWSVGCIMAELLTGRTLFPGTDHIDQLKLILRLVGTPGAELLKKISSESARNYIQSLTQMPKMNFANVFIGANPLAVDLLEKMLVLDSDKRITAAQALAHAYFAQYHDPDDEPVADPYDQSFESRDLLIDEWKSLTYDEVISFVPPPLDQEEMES
UniProt P35462, whole entry: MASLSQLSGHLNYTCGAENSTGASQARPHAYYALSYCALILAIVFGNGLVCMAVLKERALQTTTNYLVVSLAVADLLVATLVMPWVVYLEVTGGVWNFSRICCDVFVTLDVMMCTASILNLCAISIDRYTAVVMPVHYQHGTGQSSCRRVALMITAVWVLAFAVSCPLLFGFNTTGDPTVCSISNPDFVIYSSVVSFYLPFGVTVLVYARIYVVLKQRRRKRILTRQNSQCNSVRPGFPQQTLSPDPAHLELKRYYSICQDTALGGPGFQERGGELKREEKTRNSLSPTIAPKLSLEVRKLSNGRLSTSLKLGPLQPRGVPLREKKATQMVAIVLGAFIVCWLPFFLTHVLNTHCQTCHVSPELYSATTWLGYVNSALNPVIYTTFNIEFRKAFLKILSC
UniProt Q9BY41, whole entry: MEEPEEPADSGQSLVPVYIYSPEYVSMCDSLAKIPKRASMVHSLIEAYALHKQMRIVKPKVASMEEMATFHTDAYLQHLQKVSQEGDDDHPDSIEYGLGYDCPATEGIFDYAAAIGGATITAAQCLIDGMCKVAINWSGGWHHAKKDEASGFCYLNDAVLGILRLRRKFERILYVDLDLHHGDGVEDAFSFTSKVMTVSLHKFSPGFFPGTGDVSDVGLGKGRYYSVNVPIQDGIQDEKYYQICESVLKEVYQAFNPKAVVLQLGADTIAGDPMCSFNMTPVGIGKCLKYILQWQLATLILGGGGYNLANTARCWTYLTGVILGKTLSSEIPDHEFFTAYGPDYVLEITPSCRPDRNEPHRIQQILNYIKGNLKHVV
UniProt O60704, 25-377 limits assumed: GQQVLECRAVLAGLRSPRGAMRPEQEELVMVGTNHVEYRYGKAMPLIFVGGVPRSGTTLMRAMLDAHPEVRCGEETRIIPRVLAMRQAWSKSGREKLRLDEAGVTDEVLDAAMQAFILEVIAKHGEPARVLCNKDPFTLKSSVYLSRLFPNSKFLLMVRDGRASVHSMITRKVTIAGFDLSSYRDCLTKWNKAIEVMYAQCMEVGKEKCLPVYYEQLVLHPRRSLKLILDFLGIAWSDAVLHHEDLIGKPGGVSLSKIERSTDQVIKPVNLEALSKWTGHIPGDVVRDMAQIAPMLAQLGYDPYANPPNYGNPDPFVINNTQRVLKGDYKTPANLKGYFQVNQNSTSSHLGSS
UniProt O15151, 23-111 limits assumed: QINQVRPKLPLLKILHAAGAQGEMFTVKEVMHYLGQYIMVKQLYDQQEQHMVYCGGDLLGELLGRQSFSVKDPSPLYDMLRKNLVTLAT
UniProt Q9M9V8, whole entry: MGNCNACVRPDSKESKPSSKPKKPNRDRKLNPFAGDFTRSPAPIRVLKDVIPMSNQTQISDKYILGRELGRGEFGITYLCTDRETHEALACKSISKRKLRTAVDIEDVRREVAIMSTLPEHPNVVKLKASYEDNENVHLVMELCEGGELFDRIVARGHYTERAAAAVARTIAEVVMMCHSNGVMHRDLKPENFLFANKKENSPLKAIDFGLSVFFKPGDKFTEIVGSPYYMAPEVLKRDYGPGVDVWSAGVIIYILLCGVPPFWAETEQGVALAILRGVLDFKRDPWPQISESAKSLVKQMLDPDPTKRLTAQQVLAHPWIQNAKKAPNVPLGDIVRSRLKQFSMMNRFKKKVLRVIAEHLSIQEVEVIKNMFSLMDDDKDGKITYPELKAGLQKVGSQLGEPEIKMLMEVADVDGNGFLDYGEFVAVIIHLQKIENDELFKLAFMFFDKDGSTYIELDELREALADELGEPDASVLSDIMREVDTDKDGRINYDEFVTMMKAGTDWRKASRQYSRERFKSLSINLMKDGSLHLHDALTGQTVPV

CC[C@H](C)[C@H](NC(=O)[C@@H]1CCCN1C(=O)CNC(=O)[C@H](CC(C)C)NC(=O)[C@H](COP(=O)(O)O)NC(=O)[C@H](CC(N)=O)NC(=O)[C@H](CO)NC(=O)[C@H](Cc1c[nH]cn1)NC(=O)[C@H](CCCNC(=N)N)NC(=O)[C@H](CCC(N)=O)NC(=O)[C@H](CC(C)C)NC(C)=O)C(=O)N[C@@H](Cc1ccccc1)C(=O)N[C@@H](CC(=O)O)C(N)=O
TΔS (YWHAG (Homo sapiens, UniProt P61981); isothermal titration calorimetry; 37 °C): -1.2 kcal/mol

CC/C=C\C/C=C\CCC/C=C/C=C/C=C\CCCC(=O)O
IC50 (DNA-directed DNA polymerase (Enterobacteria phage T4, UniProt P04415); enzyme activity, inhibitor): > 100 µM

N#Cc1c(-c2ccc(Cl)cc2Cl)n(-c2nc(-c3ccc(Cl)cc3)c3c(NC(=O)c4ccccc4)nnc-3[nH]2)[nH]c1=O
cell growth (SNB-19; SRB; 10 µM): 31.1%

COc1ccc2c(CC(=O)N3CCC[C@H]3C(=O)N[C@@H](CC(C)C)C(=O)NCC(=O)N[C@@H](CC(C)C)C(=O)N[C@@H](CNc3ccc([N+](=O)[O-])cc3[N+](=O)[O-])C(=O)N[C@@H](C)C(=O)N[C@@H](CCCNC(=N)N)C(N)=O)cc(=O)oc2c1
kcat (MMP14 (Homo sapiens, UniProt P50281); substrate, FRET peptide cleavage; 0.5 to 4.5 µM, pH 8.0, 37 °C, together with: refolded enzyme 15 nM): 0.00097 ± 5e-05 s⁻¹

COc1ccc(-c2cn3cccnc3n2)cc1NC(=O)C(C)C
affinity ratio (FPR2 (Homo sapiens, UniProt P25090); relative to: FPR2 over FPR1): ~20 fold

C=C(C)C(=O)Nc1ccc(-c2c(-c3ccc(Oc4nccc(C)n4)c(F)c3)c3c(N)ncnc3n2C)cc1
RAS-GTP level (MFE-280 (FGFR2-low); RAS-GTP pulldown; concentration not given): no effect

CC(=O)N[C@@H](C)C(=O)N[C@@H](Cc1ccc(OP(=O)(O)O)cc1)C(=O)N[C@@H](Cc1ccc(OP(=O)(O)O)cc1)C(=O)N[C@@H](CCC(=O)O)C(=O)N[C@H](C(=O)N[C@@H](CO)C(=O)N[C@@H](Cc1ccc(OP(=O)(O)O)cc1)C(=O)N[C@@H](C)C(=O)N[C@@H](C)C(N)=O)C(C)C
Km (PTPN1; substrate, continuous UV; pH 7.4, multiply phosphorylated peptides apparent): 2 ± 0.4 µM

CC(C)C[C@H](NC(=O)[C@@H](NC(=O)[C@H](CC(C)C)NC(=O)[C@H](CS)NC(=O)CNS(=O)(=O)c1cccc2c(N(C)C)cccc12)C(C)C)C(=O)O
kcat (geranylgeranyltransferase type-I (Rattus norvegicus, UniProt P53610+Q04631); substrate, fluorescence; 30 °C, GGPP 10 µM/enzyme 10 nM, together with: GTP 30 µM): 0.052 ± 0.011 s⁻¹

CC(C)C[C@H](NC(=O)[C@H](C)NC(=O)[C@H](CCCNC(=N)N)NC(=O)[C@H](CCCNC(=N)N)NC(=O)[C@H](CCCNC(=N)N)NC(=O)[C@H](C)NC(=O)[C@H](CC(C)C)NC(=O)[C@H](CCCNC(=N)N)NC(=O)[C@H](CO)NC(=O)[C@H](CCCCN)NC(=O)[C@H](CO)NC(=O)Cn1cc(COC(=O)[C@]2(C)C=C(C(=O)OC(C)(C)C)C(=O)CC2)nn1)C(=O)O
normalized kinase activity (MAPK14 (Homo sapiens, UniProt Q16539); enzyme activity, inhibitor, D-SENSOR; 22.22 µM): 0.0129

CCOC(=O)c1c(-c2ccc(Cl)cc2Cl)n(-c2nc(-c3ccc(Cl)cc3)c3c(NC(=O)c4ccccc4)nnc-3[nH]2)[nH]c1=O
cell growth (SR; SRB; 10 µM): 7.2%

CCn1c2c(c3ccccc31)CCN(CCCCNC(=O)c1ccc3[nH]c4ccccc4c3c1)C2
inhibition (DRD3 (Homo sapiens, UniProt P35462); binding; 10 µM): 97.1 ± 2.9%

CC(=O)NCCCC[C@H](NC(=O)[C@H](CCCCNC(C)=O)NC(=O)[C@H](Cc1c[nH]cn1)NC(=O)[C@H](CCCNC(=N)N)NC(C)=O)C(=O)Nc1ccc2c(C)cc(=O)oc2c1
kcat/KM (HDAC8 (Homo sapiens, UniProt Q9BY41); deacetylation, substrate; 25 °C, together with: 150 nM enzyme): 259 ± 19 M⁻¹ s⁻¹

CC(C)C[C@@H]1NC(=O)[C@H](CO)NC(=O)[C@H](Cc2ccccc2)NC(=O)[C@H](CCCNC(=N)N)NC(=O)[C@H](C(C)C)NC(=O)CNC(=O)[C@H](Cc2c[nH]c3ccccc23)NC(=O)[C@H](CCCNC(=N)N)NC(=O)[C@H](Cc2c[nH]cn2)NC(=O)[C@@H](NC(=O)[C@H](C)N)CSSC[C@@H](C(=O)N[C@@H](CO)C(=O)NCC(=O)O)NC1=O
residual binding (Chymotrypsinogen A, alpha-chymotrypsin active form (Bos taurus, UniProt P00766); yeast display flow cytometry; concentration not given, 1 h, 4 °C, target at 10-fold KDapp, together with: aprotinin, ≥100-fold molar excess; relative to: target without aprotinin): 75%

CC[C@H](C)[C@H](NC(=O)[C@H](CC(=O)O)NC(=O)[C@@H]1CCCN1C(=O)[C@H](Cc1ccc(O)cc1)NC(=O)[C@H](Cc1ccc(O)cc1)NC(=O)[C@H](Cc1ccc(O)cc1)NC(=O)[C@H](CC(=O)O)NC(=O)[C@@H](NC(=O)[C@@H](N)C(C)C)[C@@H](C)O)C(=O)O
Vmax (Protein-tyrosine sulfotransferase 2 (Homo sapiens, UniProt O60704); sulfation of compound, substrate, LC-MS initial velocity; pH 7.5, 30 °C, reaction 1): 7.1 mU/mg protein

COc1ccc(C2=N[C@@H](c3cccc(Cl)c3)[C@@H](c3ccc(Cl)cc3)N2C(=O)N2CCNC(=O)C2)c(OC(C)C)c1 (relative stereo)
binding stoichiometry (Protein Mdm4 (MDM4, Homo sapiens, UniProt O15151); isothermal titration calorimetry; concentration not given, 298 K): 1.8 ± 0.4

CC[C@H](C)[C@H](NC(=O)[C@H](CCCNC(=N)N)NC(=O)[C@H](CO)NC(=O)[C@@H](NC(=O)[C@@H](NC(=O)[C@H](CCCCN)NC(=O)[C@@H](N)C(C)C)[C@@H](C)CC)[C@@H](C)CC)C(=O)N[C@@H](Cc1ccccc1)C(=O)N[C@@H](CO)C(=O)N[C@@H](CCC(N)=O)C(=O)N[C@@H](CCCNC(=N)N)C(=O)N[C@@H](CO)C(=O)N[C@@H](Cc1ccccc1)C(=O)N[C@@H](CCCNC(=N)N)C(=O)N[C@@H](CCCNC(=N)N)C(=O)O
relative phosphorylation (Calcium-dependent protein kinase 10 (CPK10, Arabidopsis thaliana, UniProt Q9M9V8); peptide phosphorylation, substrate, scintillation proximity; 20 µM, 24 min, together with: 10 µM ATP; relative to: no peptide control, higher = more phosphorylation): 24 fold

CC(=O)N[C@@H](C)C(=O)N[C@@H](Cc1ccc(OP(=O)(O)O)cc1)C(=O)N[C@@H](Cc1ccc(O)cc1)C(=O)N[C@@H](C)C(=O)N[C@@H](CCC(=O)O)C(=O)N[C@@H](CO)C(=O)N[C@@H](Cc1ccc(OP(=O)(O)O)cc1)C(=O)N[C@@H](C)C(=O)N[C@@H](C)C(N)=O
Km (PTPN1; substrate, continuous UV; pH 7.4, multiply phosphorylated peptides apparent): 3.1 ± 0.4 µM

For quick reference, copied from above:
C=C(C)C(=O)Nc1ccc(-c2c(-c3ccc(Oc4nccc(C)n4)c(F)c3)c3c(N)ncnc3n2C)cc1
RAS-GTP level (MFE-280 (FGFR2-low); RAS-GTP pulldown; concentration not given): no effect
